Assay results gathered from unrelated publications.
± gives the spread as reported.

`CCCCC1(CCCC)CN(c2ccccc2)c2cc(SC)c(OCC(=O)N[C@@H](C(=O)NCC(=O)O)c3ccccc3)cc2S(=O)(=O)C1` gave a half-life of 341 min (LC-MS/MS; human, plasma; oral, 10 mg, single dose, fasted).
For `CCCCCCCOc1ccc(CCC(N)(CO)CO)cc1C(F)(F)F.Cl`, the half-life was 23200 to 25400 min (healthy male humans, plasma; oral, 0.125 to 0.75 mg, mean).
For `O=C(c1cccnc1-c1ccncc1)N1CCC(O)(Cc2ccccc2)CC1`, the half-life was 235 min (healthy human, plasma; oral, 100 mg once daily, day 1, arithmetic mean).
`Nc1ccc(-c2nc([C@H]3CCc4cc(-c5cc(Cl)ccc5-n5cnnn5)cc(=O)n43)c(F)[nH]2)c(F)n1` has a half-life of 1490 min (human, plasma; oral, 150 mg once daily, day 14, fed).
`CS(=O)(=O)n1cc2c(n1)CN([C@H]1CO[C@H](c3cc(F)ccc3F)[C@@H](N)C1)C2` has a half-life of 2970 min (healthy male human, plasma; oral, 25 mg single, fasted, geometric mean).
With `CC[C@@H]1C(=O)N(C)c2cnc(Nc3ccc(C(=O)N[C@H]4CC[C@H](N5CCN(CC6CC6)CC5)CC4)cc3OC)nc2N1C(C)C` the half-life was 8340 min (human, plasma; intravenous infusion, 200 mg over 2 h, first infusion, geometric mean).
The half-life of `CCCC[C@H](NC(C)=O)C(=O)N[C@H]1CCC(=O)NC[C@@H](C(=O)N[C@@H](Cc2c[nH]c3ccccc23)C(N)=O)NC(=O)[C@H](CCCNC(=N)N)NC(=O)[C@@H](Cc2ccccc2)NC(=O)[C@H](Cc2c[nH]cn2)NC1=O` is reported as 582 min (healthy human volunteers, plasma; subcutaneous, 3.0 mg once daily, day 1).
With `Cc1ccc(NC(=O)c2ccc(CN3CCN(C)CC3)cc2)cc1Nc1nccc(-c2cncc(-c3oncc3C)c2)n1` the half-life was 1810 min (older healthy human adults, plasma; oral, 125 mg single dose, fed, mean).
With `O=CC[C@@H](O)[C@H](O)[C@H](O)CO` the half-life was 318 ± 66 min (HPLC-fluorescence; human patients, plasma; oral, 30 mg/kg/day, cycle 2).
`CC(C)(Sc1ccncc1-c1ccc(C#N)c2ccccc12)C(=O)O` has a half-life of 636 min (human; oral, 15 mg, with: febuxostat 40 mg).
`C[C@@H](c1nc(-c2ccc(C#N)cc2)cs1)[C@](O)(Cn1cncn1)c1cc(F)ccc1F` has a half-life of 25800 min (human, both sexes, plasma; oral, 200 mg single dose, with: ketoconazole 200 mg BID).

For quick reference, copied from above:
With `O=CC[C@@H](O)[C@H](O)[C@H](O)CO` the half-life was 318 ± 66 min (HPLC-fluorescence; human patients, plasma; oral, 30 mg/kg/day, cycle 2).
